{"data": "Experimental data gathered from unrelated publications", "note": "Numbered parts are unrelated; each lists some results of a single study. Changes are numbered by the printed parent chain."}
{"data": "Study 1", "target": "ABI1, truncated, D143A, DHFR fusion (Arabidopsis thaliana, UniProt P49597)", "technique": "DHFR PCA, dose-response", "matrix": "yeast", "setting": "Hill fit, mean, not affinity", "together with": "(+)-ABA, dose series", "reading": "lower = more sensitive", "parent": "PYL1, truncated, DHFR fusion (Arabidopsis thaliana, UniProt Q8VZS8); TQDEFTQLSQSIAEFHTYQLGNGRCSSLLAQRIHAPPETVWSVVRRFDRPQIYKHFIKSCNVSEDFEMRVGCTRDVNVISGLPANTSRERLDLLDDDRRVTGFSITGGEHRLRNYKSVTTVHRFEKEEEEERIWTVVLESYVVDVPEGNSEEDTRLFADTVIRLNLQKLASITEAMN"}
{"Change": "E152C", "ABA EC50 [µM]": 5.73}
{"Change": "H55M", "ABA EC50 [µM]": 0.376}
{"Change": "R69Q", "ABA EC50 [µM]": 3.05}
{"Change": "L94N", "ABA EC50 [µM]": 340}
{"Change": "D65E", "ABA EC50 [µM]": 2.51}
{"Change": "R113G", "ABA EC50 [µM]": 17.7}
{"Change": "R113V", "ABA EC50 [µM]": 6.36}
{"Change": "L28Q", "ABA EC50 [µM]": 50.6}
{"Change": "R32C", "ABA EC50 [µM]": 4.3}
{"Change": "S11A", "ABA EC50 [µM]": 1.51}
{"Change": "E67H", "ABA EC50 [µM]": 3.65}
{"Change": "V136C", "ABA EC50 [µM]": 6.84}
{"Change": "E128R", "ABA EC50 [µM]": 3.87}
{"Change": "L8H", "ABA EC50 [µM]": 12.6}
{"Change": "S171I", "ABA EC50 [µM]": 2.79}
{"Change": "S104E", "ABA EC50 [µM]": 98.1}
{"Change": "A35S", "ABA EC50 [µM]": 7.02}
{"Change": "E127W", "ABA EC50 [µM]": 4.41}
{"data": "Study 2", "target": "Histone acetyltransferase KAT6A, winged helix 1, GST fusion (KAT6A, Homo sapiens, UniProt Q92794, residues 1-85)", "technique": "protein binding microarray", "molecule type": "double-stranded DNA, one strand shown", "matrix": "in vitro", "concentration": "not given", "setting": "8-mer, flanks averaged, mean of 2 arrays, mostly near background", "reference": "not given", "reading": "higher = stronger binding", "Target sequence (chain)": "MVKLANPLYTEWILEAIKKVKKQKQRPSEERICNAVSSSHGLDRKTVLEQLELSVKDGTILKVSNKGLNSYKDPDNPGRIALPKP"}
{"Sequence": "CAAAAGGC", "E-score": 0.0699}
{"Sequence": "AACGGACC", "E-score": 0.206}
{"Sequence": "GAACTATA", "E-score": 0.039}
{"Sequence": "ATAGACAG", "E-score": -0.151}
{"Sequence": "ATCAACAA", "E-score": -0.113}
{"Sequence": "ACGACGGA", "E-score": 0.272}
{"Sequence": "TGACCCAA", "E-score": -0.216}
{"Sequence": "AAACTCTC", "E-score": -0.0491}
{"Sequence": "ACGAGCCC", "E-score": 0.049}
{"Sequence": "CTGCTGCC", "E-score": 0.048}
{"Sequence": "CTGCGATC", "E-score": -0.0673}
{"Sequence": "AAAGACAG", "E-score": -0.0155}
{"Sequence": "ATACCAAG", "E-score": 0.0328}
{"Sequence": "AGGCAGCG", "E-score": 0.189}
{"Sequence": "CAAGCACC", "E-score": -0.143}
{"Sequence": "AAATCGCG", "E-score": 0.199}
{"Sequence": "GGGAGCCA", "E-score": -0.0122}
{"Sequence": "ACCAATTC", "E-score": -0.207}
{"data": "Study 3", "target": "Protein C-ets-1 (ETS1, Homo sapiens, UniProt P14921, residues 1-441, K379A, full length assumed)", "technique": "protein-binding microarray", "molecule type": "double-stranded DNA, one strand shown", "matrix": "in vitro", "concentration": "not given", "setting": "k-mer, scored over probes, only values ≥0.25", "reading": "higher = stronger binding", "Residues (chain)": "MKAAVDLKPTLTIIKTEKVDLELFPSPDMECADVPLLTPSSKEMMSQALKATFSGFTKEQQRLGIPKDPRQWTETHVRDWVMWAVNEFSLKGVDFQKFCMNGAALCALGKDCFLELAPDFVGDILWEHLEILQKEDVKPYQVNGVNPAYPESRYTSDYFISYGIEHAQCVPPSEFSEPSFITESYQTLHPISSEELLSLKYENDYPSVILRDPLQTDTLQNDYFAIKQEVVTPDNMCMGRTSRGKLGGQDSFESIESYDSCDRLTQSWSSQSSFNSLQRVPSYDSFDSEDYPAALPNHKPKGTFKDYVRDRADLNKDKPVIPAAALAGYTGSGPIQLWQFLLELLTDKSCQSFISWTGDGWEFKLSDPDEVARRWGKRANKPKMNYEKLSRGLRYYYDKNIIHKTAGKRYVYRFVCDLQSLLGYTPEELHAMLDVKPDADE"}
{"Sequence": "CCGGGAAC", "E-score": 0.338}
{"Sequence": "AACTTCCG", "E-score": 0.382}
{"Sequence": "GTGATCAC", "E-score": 0.282}
{"Sequence": "ACCGGGCG", "E-score": 0.263}
{"Sequence": "CACCCCCG", "E-score": 0.279}
{"Sequence": "CCCCGCCA", "E-score": 0.337}
{"Sequence": "ATATTACA", "E-score": 0.302}
{"Sequence": "ACCCCGCC", "E-score": 0.424}
{"Sequence": "CGGAACAC", "E-score": 0.35}
{"Sequence": "GAACTTCC", "E-score": 0.276}
{"Sequence": "ATAAATGG", "E-score": 0.262}
{"Sequence": "AACACAGC", "E-score": 0.261}
{"Sequence": "ACCACCGG", "E-score": 0.378}
{"Sequence": "GGTCCTTA", "E-score": 0.262}
{"data": "Study 4", "target": "CCND3, cyclin fold, Cln2 fusion (human)", "technique": "yeast growth competition, sequencing", "matrix": "yeast", "setting": "weak parent motif", "reference": "not given", "reading": "higher = stronger binding", "parent": "SCAPER docking peptide (human); SNARRSLNFGGST"}
{"Change": "S6N", "normalised enrichment score": 0.102}
{"Change": "F9D", "normalised enrichment score": 0.121}
{"Change": "S1N", "normalised enrichment score": 0.0916}
{"Change": "R4S", "normalised enrichment score": 0.0441}
{"Change": "L7F", "normalised enrichment score": 0.0428}
{"Change": "S1L", "normalised enrichment score": 0.168}
{"Change": "A3H", "normalised enrichment score": 0.146}
{"Change": "N8H", "normalised enrichment score": 0.154}
{"Change": "N8K", "normalised enrichment score": 0.167}
{"Change": "F9M", "normalised enrichment score": 0.165}
{"Change": "N2Q", "normalised enrichment score": 0.125}
{"Change": "F9R", "normalised enrichment score": 0.128}
{"Change": "S6I", "normalised enrichment score": 0.122}
{"Change": "S1I", "normalised enrichment score": 0.0562}
{"Change": "F9E", "normalised enrichment score": 0.0197}
{"Change": "S1F", "normalised enrichment score": 0.298}
{"Change": "G11W", "normalised enrichment score": 0.0944}
{"Change": "R5D", "normalised enrichment score": 0.0875}
{"Change": "G11D", "normalised enrichment score": 0.17}
{"Change": "N8R", "normalised enrichment score": 0.0945}
{"Change": "L7V", "normalised enrichment score": 0.0865}
{"Change": "G10M", "normalised enrichment score": 0.142}
{"data": "Study 5", "target": "Interferon regulatory factor 7, full length, phosphomimetic (IRF7, Homo sapiens, UniProt Q92985, residues 1-503, S471D/S472D/S475D/S476D/S477D/S483D/S484D/S487D)", "technique": "protein-binding microarray", "molecule type": "double-stranded DNA, one strand shown", "matrix": "in vitro", "concentration": "2200 nM top", "setting": "60-bp whole probe", "together with": "salmon DNA 0.4 mg/ml", "reference": "random background probes", "reading": "higher = stronger binding", "all sequences stand within": "GCCTAGCAC … GTCTTGATTCGCTTGACGCTGCTG", "sequence of UniProt Q92985 (whole entry, unmodified, looked up)": "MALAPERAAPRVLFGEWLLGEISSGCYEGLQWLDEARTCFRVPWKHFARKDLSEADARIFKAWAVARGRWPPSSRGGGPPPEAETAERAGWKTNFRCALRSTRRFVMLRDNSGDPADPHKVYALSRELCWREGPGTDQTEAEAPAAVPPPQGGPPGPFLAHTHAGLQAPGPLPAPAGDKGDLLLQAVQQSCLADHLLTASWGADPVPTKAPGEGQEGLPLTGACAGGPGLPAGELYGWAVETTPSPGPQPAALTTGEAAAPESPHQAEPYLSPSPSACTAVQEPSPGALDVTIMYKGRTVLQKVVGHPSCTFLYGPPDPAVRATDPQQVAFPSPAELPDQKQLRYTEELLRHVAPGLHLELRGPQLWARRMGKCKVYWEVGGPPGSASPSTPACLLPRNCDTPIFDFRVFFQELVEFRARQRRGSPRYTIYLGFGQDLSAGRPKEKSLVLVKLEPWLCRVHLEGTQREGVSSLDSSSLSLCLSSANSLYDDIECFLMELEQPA"}
{"Sequence": "TTAGGTATCCTCTTCCTTTAGTGCTAG", "fitted relative affinity": "1.43 z-score"}
{"Sequence": "GACGATATCATTTTCGAGACGTGCTAG", "fitted relative affinity": "3.43 z-score"}
{"Sequence": "GCCGGTTTCGGTTTCGGGACGTGCTAG", "fitted relative affinity": "16.5 z-score"}
{"Sequence": "GACGGTTTCCTTTCCCAGACGTGCTAG", "fitted relative affinity": "4.53 z-score"}
{"Sequence": "AAAGTTATCACTTCCAAAGTGTGCTAG", "fitted relative affinity": "0.461 z-score"}
{"Sequence": "GACGGTTTCGACTTTCCGGACGTGCTA", "fitted relative affinity": "7.72 z-score"}
{"Sequence": "TAAGGACTGGACTATCGGTTAGTGCTA", "fitted relative affinity": "-0.361 z-score"}
{"Sequence": "GTAGGTATCGACTTTCGGTTAGTGCTA", "fitted relative affinity": "6.02 z-score"}
{"Sequence": "TTATGTCTCCTTATCCTTTAGTGCTAG", "fitted relative affinity": "2.14 z-score"}
{"Sequence": "TGGAGAGCATATTCTGTGACGTGCTAG", "fitted relative affinity": "-0.471 z-score"}
{"Sequence": "TTTTTTTTCATCATTGCCTAGTGCTAG", "fitted relative affinity": "2.63 z-score"}
{"Sequence": "GAGGGACTGGGGTATCGGGACGTGCTA", "fitted relative affinity": "-0.918 z-score"}
{"Sequence": "TTTTTTTTTTTTTTTGTATTGTGCTAG", "fitted relative affinity": "2.49 z-score"}
{"Sequence": "GACGTACTGCTTTTCCTGACGTGCTAG", "fitted relative affinity": "1.18 z-score"}
{"Sequence": "GACGATTTGGGGACTGGAGACGTGCTA", "fitted relative affinity": "0.237 z-score"}
{"Sequence": "TTTGGACACAGACACAGGCCGTGCTAG", "fitted relative affinity": "-0.308 z-score"}
{"Sequence": "TTAGGTAACCTTCTCCTTTAGTGCTAG", "fitted relative affinity": "0.614 z-score"}
{"data": "Study 6", "target": "NFE2L2, bZIP domain (human)", "technique": "DHFR protein complementation", "matrix": "yeast", "setting": "single substitutions, most at no-binding floor", "reference": "wild-type JUN-FOS pair", "reading": "higher = stronger binding", "parent": "JUN, bZIP domain (human); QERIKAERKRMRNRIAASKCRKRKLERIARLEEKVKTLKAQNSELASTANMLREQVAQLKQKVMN; partner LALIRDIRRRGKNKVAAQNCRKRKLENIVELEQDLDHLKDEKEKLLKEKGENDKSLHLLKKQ"}
{"Change": "T37M", "binding fitness [natural log]": -1.55}
{"Change": "V56N", "binding fitness [natural log]": -1.47}
{"Change": "K36E", "binding fitness [natural log]": -1.57}
{"Change": "I28E", "binding fitness [natural log]": -1.08}
{"Change": "S47M", "binding fitness [natural log]": -1.26}
{"Change": "E44W", "binding fitness [natural log]": -1.34}
{"Change": "A40W", "binding fitness [natural log]": -1.47}
{"Change": "N42S", "binding fitness [natural log]": -1.46}
{"Change": "S43I", "binding fitness [natural log]": -1.45}
{"Change": "T48F", "binding fitness [natural log]": -1.28}
{"Change": "N42R", "binding fitness [natural log]": -1.37}
{"Change": "A40V", "binding fitness [natural log]": -1.28}
{"Change": "Q55R", "binding fitness [natural log]": -1.52}
{"Change": "I28W", "binding fitness [natural log]": -1.56}
{"Change": "T37E", "binding fitness [natural log]": -1.35}
{"note": "Some of these lines once more (study 6):"}
{"Change": "T37M", "binding fitness [natural log]": -1.55}
{"Change": "V56N", "binding fitness [natural log]": -1.47}
{"Change": "K36E", "binding fitness [natural log]": -1.57}
{"Change": "I28E", "binding fitness [natural log]": -1.08}
{"Change": "S47M", "binding fitness [natural log]": -1.26}
{"Change": "E44W", "binding fitness [natural log]": -1.34}
{"Change": "A40W", "binding fitness [natural log]": -1.47}
{"Change": "N42S", "binding fitness [natural log]": -1.46}
{"Change": "S43I", "binding fitness [natural log]": -1.45}
{"Change": "T48F", "binding fitness [natural log]": -1.28}
{"Change": "N42R", "binding fitness [natural log]": -1.37}
{"Change": "A40V", "binding fitness [natural log]": -1.28}
{"Change": "Q55R", "binding fitness [natural log]": -1.52}
{"Change": "I28W", "binding fitness [natural log]": -1.56}
{"Change": "T37E", "binding fitness [natural log]": -1.35}
